# Measurements pooled from the literature.
# Parts stem from different laboratories: compare values within a part only. Positions count from the first letter of the parent shown.

# Set 1
# Target: CEBPB, bZIP domain (human)
# Method: DHFR protein complementation
# Matrix: yeast
# Setting: single substitutions, most at no-binding floor
# Reference: wild-type JUN-FOS pair
# Direction: higher = stronger binding
# Parent: JUN, bZIP domain (human); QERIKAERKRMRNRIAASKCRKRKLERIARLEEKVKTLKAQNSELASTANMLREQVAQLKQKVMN; partner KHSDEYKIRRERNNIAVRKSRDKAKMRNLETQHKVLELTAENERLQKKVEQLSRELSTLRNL
Substitution,binding fitness [natural log]
E33W,-1.48
L52S,-1.59
L52V,-1.38
E54D,-1.04
E44R,-1.39
R30L,-1.24
K36C,-1.34
T48C,-1.09
R53A,-0.725
E33V,-1.38
L31P,-1.5
E33P,-1.44
E54V,-1.41
A49F,-1.54
A57N,-1.21
A40H,-1.4
E54S,-1.24
V35H,-1.45
V56G,-1.5
T48L,-1.25
L31V,-1.4
S47Y,-1.22
A40R,-1.27
K36H,-1.33
L31F,-1.57

# Set 2
# Target: ABI1, truncated, D143A, DHFR fusion (Arabidopsis thaliana)
# Method: DHFR PCA, deep sequencing
# Matrix: yeast
# Setting: methotrexate growth selection, single substitutions
# With: (+)-ABA 0.0091 µM
# Reference: wild-type fitted maximum
# Direction: higher = stronger binding
# Parent: PYL1, truncated, DHFR fusion (Arabidopsis thaliana); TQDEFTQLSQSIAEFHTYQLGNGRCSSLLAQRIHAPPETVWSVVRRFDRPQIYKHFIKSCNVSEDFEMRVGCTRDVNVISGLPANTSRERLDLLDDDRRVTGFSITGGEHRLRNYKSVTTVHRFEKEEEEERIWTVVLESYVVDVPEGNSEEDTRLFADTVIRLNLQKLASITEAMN; partner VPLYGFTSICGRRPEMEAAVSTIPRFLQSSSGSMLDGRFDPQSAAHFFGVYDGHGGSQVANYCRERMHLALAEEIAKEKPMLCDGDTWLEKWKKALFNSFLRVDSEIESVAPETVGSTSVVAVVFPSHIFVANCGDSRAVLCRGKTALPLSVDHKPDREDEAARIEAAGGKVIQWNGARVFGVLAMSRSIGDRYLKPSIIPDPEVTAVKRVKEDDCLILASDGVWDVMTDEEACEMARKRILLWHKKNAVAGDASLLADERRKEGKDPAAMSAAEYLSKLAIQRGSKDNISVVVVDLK
Substitution,relative binding score [%]
D65M,11.3
A175E,23.8
D144A,-1.32
V44K,-2.2
N114C,13.5
V43E,-3.41
E64D,47.1
L156V,7.22
E125R,26.8
T135D,4
R132Q,40.9
C60G,0.478
V137R,-0.887
T101E,-1.43
N149T,51.5
A13M,11.9
K116S,13
Y141S,-3.03
E4A,9.49
N77L,26.6
N22A,47.2
T120S,68.7
D159A,-0.301
N61D,33.2
D159R,-5.23

# Set 3
# Target: CCNB3, cyclin fold, Cln2 fusion (human)
# Method: yeast growth competition, sequencing
# Matrix: yeast
# Setting: weak parent motif
# Reference: not given
# Direction: higher = stronger binding
# Parent: MASTL docking peptide (human); PMIAKNLMCELDE; partner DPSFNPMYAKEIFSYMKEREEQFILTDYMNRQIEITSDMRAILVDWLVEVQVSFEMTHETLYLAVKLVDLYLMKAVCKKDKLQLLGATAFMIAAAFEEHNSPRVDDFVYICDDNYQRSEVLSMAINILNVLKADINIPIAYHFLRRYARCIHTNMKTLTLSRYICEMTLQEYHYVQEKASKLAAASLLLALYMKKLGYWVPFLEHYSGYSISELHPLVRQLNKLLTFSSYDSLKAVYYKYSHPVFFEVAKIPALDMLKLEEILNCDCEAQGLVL
Substitution,normalised enrichment score
PHIAKNLMCELDE [M2H],-0.00907
PMIAKNLMCETDE [L11T],-0.163
PMIAKNRMCELDE [L7R],-0.137
PMIAKNLMIELDE [C9I],-0.418
PMIAKDLMCELDE [N6D],0.0406
PMIAWNLMCELDE [K5W],0.305
PMIAKNLMMELDE [C9M],-0.0948
PMIAKTLMCELDE [N6T],0.223
PMIAKNLECELDE [M8E],0.142
PMIAKNLMCESDE [L11S],-0.109
PMIAKFLMCELDE [N6F],-0.0636
PMMAKNLMCELDE [I3M],0.0792
PMIAKNLMCELRE [D12R],-0.0186
PNIAKNLMCELDE [M2N],-0.192
PMIAKNVMCELDE [L7V],-0.372
PMIAKNLMAELDE [C9A],0.0715
PMIAKNLMCEEDE [L11E],0.263
PMIAKNLCCELDE [M8C],-0.248
PMIGKNLMCELDE [A4G],-0.133
PMIAKNLKCELDE [M8K],0.0203
PMIAKNLMCELNE [D12N],-0.365
PVIAKNLMCELDE [M2V],-0.0788
PMIAKNLMCELQE [D12Q],0.361
PMIAKNLMCILDE [E10I],-0.14
PMRAKNLMCELDE [I3R],0.018

# Set 4
# Target: RING finger protein unkempt homolog, zinc fingers 1-6, GST-SBP tag (UNK, Homo sapiens, UniProt Q9C0B0, residues 30-357)
# Method: RNA Bind-n-Seq
# Form: RNA
# Matrix: in vitro
# Concentration: not given
# Setting: RNA with constant flanks, human and mouse sites, ends assumed
# Reference: input RNA pool
# Direction: higher = stronger binding
# All sequences stand within: GGGAGUUCUACAGUCCGACGAUC … CAACAGAGGAUUGAGCAUCA
# Target sequence (chain): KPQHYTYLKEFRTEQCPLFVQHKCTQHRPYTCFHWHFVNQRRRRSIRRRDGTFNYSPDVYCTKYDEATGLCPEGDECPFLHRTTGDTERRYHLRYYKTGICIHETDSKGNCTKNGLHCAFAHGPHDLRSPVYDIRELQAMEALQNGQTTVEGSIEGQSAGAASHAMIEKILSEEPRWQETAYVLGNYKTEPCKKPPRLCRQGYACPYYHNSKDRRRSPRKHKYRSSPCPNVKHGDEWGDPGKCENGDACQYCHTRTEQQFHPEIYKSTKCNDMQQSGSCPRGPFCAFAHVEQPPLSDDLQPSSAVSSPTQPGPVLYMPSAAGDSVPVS
Sequence,bound/input enrichment
UUUACUGUAGUGUAUCUUGUACAGAUAACAUGUAUUUUUAAAGGAAAAAAAACGGAAUUGAAGCUAUUUUUUCUUGCAUUUCUAAUUGACCUGAGGGACAUUCCGUUUGAAAUGUACUGA,0.278 ratio
ACCCCCCUCUUUCUCCUUGGCUGCAGUGGGGCCUUUAUCCAGUGCCAGGGAGGAACAACAUAGUUAAUUUUUUUCUAACCUUGCCACUUUGAGGGAAGGAAGGGUUGGGGGAAGGGCAAG,4.28 ratio
GGCCCUGUGAAAGCUGAGACUGAGGAAGCAGCCCAUUCAGUUUCACAAGAGAUGAGUGUGAAUUCUCCCACAGCCCAGGAGAGCCAGAGGAAUGCAGAAACCCCAGCGGAGACUCCUACU,0.116 ratio
CUUCACACUGGUGAGAAACCCUAUGUGUGUAAUGAAUGUGGAAAGGCCUUUGCGCGUGGCUUACUACUUAUACAACAUCAGAGAAUUCAUACUGGUGAGAAACCAUAUCAAUGUAAGGAA,0.171 ratio
GUCAAAGAAUUGGCAAAUCAAAGAAAAUCAAGAGCCAAUGAACUGGCGGGGAACCUCGCAUCUCGAAGGGUGAGUGUCGCCUCUGAUCCUGGUCGACGAGGUCAGCACAAUACGUUGAGU,0.203 ratio
AUCACCGUGGACUCCAAGCGCUUCUUCUUCGAUGUGGGCUGCAACAAAUACGGGGUGUUUCUGCGAGUGAGCGAGGUGAAGCCGUCCUACCGCAAUGCCAUCACCGUACCCUUCAAAGCC,0.0523 ratio
UUUGAAAGAAAAAUACCAUGUCUCUAAGCCAACUUUAAUUGCUUAAAAGACAUUUUUAUUUAGUUGAAAAAUCUAGUUUUUUUUGUAAACUGUAUCAAAUCUGUAUAUGUUGUAAUAAAA,15.1 ratio
GCGCCAUUCAAGUUUGACAUGGAGUUGGACGACUUACCUAAGGAGAAGCUCAAAGAACUCAUUUUUGAAGAGACUGCUAGAUUCCAGCCAGGAUACAGAUCUUAAAUUGGUCAGGACAAG,0.141 ratio

# A few entries again (set 1):
Substitution,binding fitness [natural log]
V56G,-1.5
L31F,-1.57
L31P,-1.5
A49F,-1.54
T48C,-1.09
V35H,-1.45
E33V,-1.38
L52V,-1.38
